Results collected from several papers.
Every numbered part comes from another study and shows a few of its results, in no order.

Block 1 — method: protein-binding microarray; form: double-stranded DNA, one strand shown; medium: in vitro; tested at: not given; direction: higher = stronger binding
Target: Hepatocyte nuclear factor 3-beta, forkhead domain (FOXA2, Homo sapiens, UniProt Q9Y261, residues 142-269)
Setting: k-mer, scored over probes, only values ≥0.25
Target sequence (chain): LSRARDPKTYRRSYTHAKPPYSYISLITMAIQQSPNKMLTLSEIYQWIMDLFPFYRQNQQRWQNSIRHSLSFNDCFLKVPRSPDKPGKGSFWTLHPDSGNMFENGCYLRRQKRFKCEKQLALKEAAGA
With `TAAGTGTA` the E-score was 0.342.
`AAGCAAAC` has an E-score of 0.263.
The E-score of `AAACATTT` is reported as 0.251.

Block 2 — method: protein binding microarray; form: double-stranded DNA, one strand shown; medium: in vitro; tested at: not given; relative to: not given; direction: higher = stronger binding
Target: Histone acetyltransferase KAT6A, winged helix 2, GST fusion (KAT6A, Homo sapiens, UniProt Q92794, residues 85-181)
Setting: 8-mer, flanks averaged, mean of 2 arrays, mostly near background
Construct (chain): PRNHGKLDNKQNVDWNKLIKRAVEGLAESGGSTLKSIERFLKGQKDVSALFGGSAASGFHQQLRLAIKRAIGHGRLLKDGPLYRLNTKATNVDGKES
`AAGGATTC` gave an E-score of -0.0167.
For `TATCTGCA`, the E-score was -0.0563.
`AACAGTTC` gave an E-score of 0.0372.
The E-score of `ACTCTACC` is reported as -0.12.
`CTTTGAGC` has an E-score of -0.0137.

Block 3 — method: universal PBM; form: double-stranded DNA, one strand shown; medium: in vitro; tested at: 600 nM; direction: higher = stronger binding
Target: Sal-like protein 4, full length isoform A (SALL4, Homo sapiens, UniProt Q9UJQ4, residues 1-1053)
Chain of UniProt Q9UJQ4 (whole entry, looked up): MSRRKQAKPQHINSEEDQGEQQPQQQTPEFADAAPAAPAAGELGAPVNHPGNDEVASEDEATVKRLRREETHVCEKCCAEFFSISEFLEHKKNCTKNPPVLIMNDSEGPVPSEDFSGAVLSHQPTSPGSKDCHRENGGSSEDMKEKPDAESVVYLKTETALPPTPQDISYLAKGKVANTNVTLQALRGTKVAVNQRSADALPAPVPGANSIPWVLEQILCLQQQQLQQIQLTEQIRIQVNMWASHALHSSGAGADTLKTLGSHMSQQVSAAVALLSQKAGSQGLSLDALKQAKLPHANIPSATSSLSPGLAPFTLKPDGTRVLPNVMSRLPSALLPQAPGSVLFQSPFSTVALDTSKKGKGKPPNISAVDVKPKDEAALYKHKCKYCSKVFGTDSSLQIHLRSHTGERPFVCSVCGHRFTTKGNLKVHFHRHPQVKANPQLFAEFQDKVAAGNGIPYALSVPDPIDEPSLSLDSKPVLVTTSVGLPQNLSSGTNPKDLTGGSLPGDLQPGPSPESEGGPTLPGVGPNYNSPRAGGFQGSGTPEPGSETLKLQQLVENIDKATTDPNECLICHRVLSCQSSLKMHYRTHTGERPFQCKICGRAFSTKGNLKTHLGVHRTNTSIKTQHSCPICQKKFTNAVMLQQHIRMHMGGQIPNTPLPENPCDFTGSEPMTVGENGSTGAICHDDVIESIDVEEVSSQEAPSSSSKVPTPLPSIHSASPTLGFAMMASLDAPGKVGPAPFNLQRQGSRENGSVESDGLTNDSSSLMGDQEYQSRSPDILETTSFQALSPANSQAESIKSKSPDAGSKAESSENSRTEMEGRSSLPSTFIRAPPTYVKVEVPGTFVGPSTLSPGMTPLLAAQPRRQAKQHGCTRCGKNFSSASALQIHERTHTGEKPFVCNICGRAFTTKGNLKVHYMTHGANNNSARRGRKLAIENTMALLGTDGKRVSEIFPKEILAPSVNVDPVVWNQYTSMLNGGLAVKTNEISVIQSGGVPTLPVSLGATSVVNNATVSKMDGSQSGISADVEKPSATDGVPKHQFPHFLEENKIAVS
Setting: 8-mer, flanks averaged, mean of replicates
`AGGCGGCC` gave an E-score of -0.269.
`ATTGATAA` gave an E-score of 0.3.
`CGATCTGC` gave an E-score of -0.27.
With `AAAAAATA` the E-score was 0.437.

Single results of other studies
`PhoQ, residues 284 288 289 292 302 303 NLMGRA` gave a fold induction of 4.57 (PhoP, residues 12 14 15 18 19 QWHVF (Escherichia coli, UniProt P23836); Sort-seq, refers to: YFP reporter; E. coli; PhoQ-PhoP variant library, with: 10 µM Mg2+; relative to: high Mg2+ state, higher = stronger signaling).
